Published values pooled from the literature.
Compare with care: the assays were run in different laboratories. “And” joins repeats or separate records; there may be more than shown. Numbers after ± are the reported error.
EIF4E2: EIF4E2 52-234 (Homo sapiens, UniProt O60573-1)
CDC48A: CDC48A 1-463 (Arabidopsis thaliana, UniProt P54609)
Chain of UniProt P54609 (whole entry, looked up): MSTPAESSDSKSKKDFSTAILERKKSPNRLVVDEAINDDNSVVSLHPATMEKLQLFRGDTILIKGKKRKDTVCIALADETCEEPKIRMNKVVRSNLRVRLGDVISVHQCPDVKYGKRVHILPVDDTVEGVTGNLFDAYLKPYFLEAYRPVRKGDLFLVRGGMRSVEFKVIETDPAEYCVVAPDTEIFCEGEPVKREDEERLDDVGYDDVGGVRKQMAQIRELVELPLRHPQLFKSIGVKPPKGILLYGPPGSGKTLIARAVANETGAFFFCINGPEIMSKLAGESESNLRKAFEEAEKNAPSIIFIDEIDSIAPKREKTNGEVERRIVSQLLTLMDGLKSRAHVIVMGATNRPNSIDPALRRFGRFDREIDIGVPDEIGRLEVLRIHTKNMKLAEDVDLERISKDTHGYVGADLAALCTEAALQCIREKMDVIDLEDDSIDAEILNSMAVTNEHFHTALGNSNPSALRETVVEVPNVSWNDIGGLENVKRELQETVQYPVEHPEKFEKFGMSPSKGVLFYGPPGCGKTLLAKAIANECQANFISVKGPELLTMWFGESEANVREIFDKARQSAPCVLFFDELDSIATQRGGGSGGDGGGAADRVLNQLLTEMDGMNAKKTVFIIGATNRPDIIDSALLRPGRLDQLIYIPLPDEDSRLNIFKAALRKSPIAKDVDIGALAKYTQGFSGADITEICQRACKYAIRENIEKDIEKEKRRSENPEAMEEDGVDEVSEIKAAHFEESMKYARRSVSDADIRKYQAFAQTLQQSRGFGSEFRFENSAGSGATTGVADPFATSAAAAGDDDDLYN
T1: BPTF PHD domain Y23M; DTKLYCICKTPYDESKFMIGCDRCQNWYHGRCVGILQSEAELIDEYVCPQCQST
T2: ATRX ADD domain 167-289 K251R/F284Y (Homo sapiens); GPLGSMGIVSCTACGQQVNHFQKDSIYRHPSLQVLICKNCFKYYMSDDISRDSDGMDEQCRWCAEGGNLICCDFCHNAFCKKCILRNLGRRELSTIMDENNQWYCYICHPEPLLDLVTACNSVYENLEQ
B1: DTNB 422-535 (Homo sapiens, UniProt O60941-1); sequence looked up; chain PPTDLSFNFDANKQQRQLIAELENKNREILQEIQRLRLEHEQASQPTPEKAQQNPTLLAELRLLRQRKDELEQRMSALQESRRELMVQLEELMKLLKEEEQKQAAQATGSPHTS
B2: priC (Escherichia coli, UniProt P23862); sequence looked up; chain MKTALLLEKLEGQLATLRQRCAPVSQFATLSARFDRHLFQTRATTLQACLDEAGDNLAALRHAVEQQQLPQVAWLAEHLAAQLEAIAREASAWSLREWDSAPPKIARWQRKRIQHQDFERRLREMVAERRARLARVTDLVEQQTLHREVEAYEARLARCRHALEKIENRLARLTR
B3: GIGYF2 35-105 (Homo sapiens, UniProt Q6Y7W6-1); chain KYKLADYRYGREEMLALFLKDNKIPSDLLDKEFLPILQEEPLPPLALVPFTEEEQRNFSMSVNSAAVLRLT
B4: CER6 (Zea mays, UniProt B4G0N2); sequence looked up; chain MPSGGVFSGSVNLKHVKLGYQYLVNHFLTLLLVPVMAATALELARLGPGELLSLWRSLELDLVHILCSAFLVVFVGTVYVMSRPRPVYLVDYACYKPPASCRVPFATFMEHTRLISDDDKSVRFQTRILERSGLGEDTCLPPANHYIPPNPSMEASRAEAQLVIFSAIDDLVRRTGLKPKDIDILVVNCSLFSPTPSLSAMIINKYKLRSNIRSFNLSGMGCSAGLISIDLARDMLQVHPNSNALVVSTEIITPNFYQGSRRDMLLPNCLFRMGAAAILLSNRRREARRAKYRLVHVVRTHKGADDRAYRCVYEEEDEQGFSGISLSKELMAIAGDALKSNITTIGPLVLPMSEQLLFFFRLVGRKLVNKGWRPYIPDFKLAFEHFCIHAGGRAVIDELQKNLQLSPRHVEASRMTLHRFGNTSSSSLWYELAYIEAKGRMRRGDRVWQIGFGSGFKCNSAVWKCLRSIKTPTNGPWDDCIHRYPVDVPEVVKL
B5: PUX7 322-468 (Arabidopsis thaliana, UniProt Q94JZ8); chain EDVAKDEEEEELQRALAASLEDNNMKESSDDQSTIIPEEVAVEAVTSAVLPTFPPLPEEPKGGDRSLQCRVGIRLPNGQRLQRNFLKTDTIQLLWSFCYSQLEESERKKPLKLTQAIPGESKTLEYESNLTLEQSGVANSMISATWE
B6: PUX5 301-421 M393A/F395A (Arabidopsis thaliana, UniProt Q7Y175); chain KNPFQGVGRTLGASGSGSSSAPQASSAPMNVAPAPSRGLVVDPAAPTTSIQLRLADGTRLVSRFNNHHTVRDVRGFIDASRPGGSKEYQLLTAGAPPKQLTELDQTIEQAGIANAVVIQKF
B7: ATG23 full-length, dimer (Saccharomyces cerevisiae, UniProt Q06671); sequence looked up; chain MELNQVLEKKEQILQYLGTLVGLHEKALSDVNSASQVTSIRKDITICLNDLCRINDLLVSHDGLLKREIGSLLRDKQELLELNEREQLLWKERKSWHIKQETDAAPADYVIDKDAIITISSHHRTSLNKYIESVGAENTILSNTDDSDAMIEEVQNAESSADQMIRNYKLLQLSHKQAKSEIIRLETLLRDFKKDNKFIEEELKRQSGRIRSEMGNIDFHLSKIEESKHQLMKRIGFESPLTQEKSLSEKIFNLRLSSADEDYNERQTINMKNFVHMKDLIELKIEDLQEQLMRNKNESSTVLTQRELWLDCQKKVGDLESKLITKLRSSSNSKIPPNEMSEMINSTIQYLNNLLDSSDEKLTTTLISNERDVLSKACEELHSESTTAQDGSSALPSKPIDIHKSHKGSNASSNLKQPSTPSFLVASKSPPKIGISESVVNANKNDAISKKVE
B8: UBE3A 1-64 (Homo sapiens, UniProt Q05086-2); sequence looked up; chain MKRAAAKHLIERYYHQLTEGCGNEACTNEFCASCPTFLRMDNNAAAIKALELYKINAKLCDPHP
B9: YWHAE (Homo sapiens, UniProt P62258); sequence looked up; chain MDDREDLVYQAKLAEQAERYDEMVESMKKVAGMDVELTVEERNLLSVAYKNVIGARRASWRIISSIEQKEENKGGEDKLKMIREYRQMVETELKLICCDILDVLDKHLIPAANTGESKVFYYKMKGDYHRYLAEFATGNDRKEAAENSLVAYKAASDIAMTELPPTHPIRLGLALNFSVFYYEILNSPDRACRLAKAAFDDAIAELDTLSEESYKDSTLIMQLLRDNLTLWTSDMQGDGEEQNKEALQDVEDENQ
B10: mxt 577-640 (Drosophila melanogaster, UniProt Q9VR35); sequence looked up; chain SRVSYDIEHLLYYSMSPHSWTLPTDWQKMQETAPSILRNKDLQDESQRFDGDKYLASIKTAAKR
B11: PUX5 301-421 R353A (Arabidopsis thaliana, UniProt Q7Y175); chain KNPFQGVGRTLGASGSGSSSAPQASSAPMNVAPAPSRGLVVDPAAPTTSIQLALADGTRLVSRFNNHHTVRDVRGFIDASRPGGSKEYQLLTMGFPPKQLTELDQTIEQAGIANAVVIQKF
B12: SPP1 (Saccharomyces cerevisiae, UniProt Q03012); chain MSLPQWCPPHSTLKRNPTTGEDVYCICKRPDYGELMVGCDGCDDWFHFTCLHIPEQFKDLVFSFYCPYCQAGITGKNKDAIINGEGSLPKTLWKRKCRISDCYKPCLQDSKYCSEEHGREFVNDIWSRLKTDEDRAVVKKMVEQTGHIDKFKKFGQLDFIDNNIVVKTDDEKEIFDQIVVRDMTLKTLEDDLQEVQEISLPLFKKKLELLEVYLGWLDNVYTEMRKLDDDAASHVECGKEDSKGTKRKKKKNSSRSRARKNICGYCSTYERIPCSVEEFVRDFGSNEEATKIHEVCTKWKCNRHLDWVSTNQEQYLQQIDSLESMQERLQHLIQARKKQLNIQYYEEILRRGL
B13: BBC3 (Homo sapiens, UniProt Q9BXH1-2); chain MKFGMGSAQACPCQVPRAASTTWVPCQICGPQPSLSLAEQHLESPVPSAPGALAGGPTQAAPGVRGEEEQWAREIGAQLRRMADDLNAQYERRRQEEQQRHRPSPWRVLYNLIMGLLPLPRGHRAPEMEPN
B14: HCK 78-138 (Homo sapiens, UniProt P08631); chain SEDIIVVALYDYEAIHHEDLSFQKGDQMVVLEESGEWWKARSLATRKEGYIPSNYVARVDS
Chain of UniProt Q09822 (whole entry, unmodified, looked up): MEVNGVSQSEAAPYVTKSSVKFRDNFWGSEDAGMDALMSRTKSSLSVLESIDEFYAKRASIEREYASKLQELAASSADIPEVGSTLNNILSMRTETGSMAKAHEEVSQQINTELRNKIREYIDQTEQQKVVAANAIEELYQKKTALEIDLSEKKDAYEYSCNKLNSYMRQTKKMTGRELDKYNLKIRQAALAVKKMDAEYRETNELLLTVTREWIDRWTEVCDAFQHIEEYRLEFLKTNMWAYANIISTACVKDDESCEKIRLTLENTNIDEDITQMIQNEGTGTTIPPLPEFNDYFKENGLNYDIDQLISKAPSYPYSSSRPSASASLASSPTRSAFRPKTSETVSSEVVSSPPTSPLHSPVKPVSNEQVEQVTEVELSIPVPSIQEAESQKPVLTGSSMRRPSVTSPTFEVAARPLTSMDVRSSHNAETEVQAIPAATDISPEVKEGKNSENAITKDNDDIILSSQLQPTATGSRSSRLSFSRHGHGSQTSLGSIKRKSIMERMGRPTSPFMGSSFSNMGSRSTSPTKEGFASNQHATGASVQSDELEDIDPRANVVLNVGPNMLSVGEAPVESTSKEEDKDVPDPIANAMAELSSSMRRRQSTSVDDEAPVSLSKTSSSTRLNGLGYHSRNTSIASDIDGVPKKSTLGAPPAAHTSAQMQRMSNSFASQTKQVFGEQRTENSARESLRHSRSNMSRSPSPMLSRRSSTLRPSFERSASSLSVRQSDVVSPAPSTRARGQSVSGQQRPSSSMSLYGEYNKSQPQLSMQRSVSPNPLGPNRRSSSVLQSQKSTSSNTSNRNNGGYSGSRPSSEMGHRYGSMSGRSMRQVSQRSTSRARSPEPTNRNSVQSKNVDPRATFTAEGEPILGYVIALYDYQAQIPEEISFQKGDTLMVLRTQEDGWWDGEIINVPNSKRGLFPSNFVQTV
Chain of UniProt Q12142 (whole entry, looked up): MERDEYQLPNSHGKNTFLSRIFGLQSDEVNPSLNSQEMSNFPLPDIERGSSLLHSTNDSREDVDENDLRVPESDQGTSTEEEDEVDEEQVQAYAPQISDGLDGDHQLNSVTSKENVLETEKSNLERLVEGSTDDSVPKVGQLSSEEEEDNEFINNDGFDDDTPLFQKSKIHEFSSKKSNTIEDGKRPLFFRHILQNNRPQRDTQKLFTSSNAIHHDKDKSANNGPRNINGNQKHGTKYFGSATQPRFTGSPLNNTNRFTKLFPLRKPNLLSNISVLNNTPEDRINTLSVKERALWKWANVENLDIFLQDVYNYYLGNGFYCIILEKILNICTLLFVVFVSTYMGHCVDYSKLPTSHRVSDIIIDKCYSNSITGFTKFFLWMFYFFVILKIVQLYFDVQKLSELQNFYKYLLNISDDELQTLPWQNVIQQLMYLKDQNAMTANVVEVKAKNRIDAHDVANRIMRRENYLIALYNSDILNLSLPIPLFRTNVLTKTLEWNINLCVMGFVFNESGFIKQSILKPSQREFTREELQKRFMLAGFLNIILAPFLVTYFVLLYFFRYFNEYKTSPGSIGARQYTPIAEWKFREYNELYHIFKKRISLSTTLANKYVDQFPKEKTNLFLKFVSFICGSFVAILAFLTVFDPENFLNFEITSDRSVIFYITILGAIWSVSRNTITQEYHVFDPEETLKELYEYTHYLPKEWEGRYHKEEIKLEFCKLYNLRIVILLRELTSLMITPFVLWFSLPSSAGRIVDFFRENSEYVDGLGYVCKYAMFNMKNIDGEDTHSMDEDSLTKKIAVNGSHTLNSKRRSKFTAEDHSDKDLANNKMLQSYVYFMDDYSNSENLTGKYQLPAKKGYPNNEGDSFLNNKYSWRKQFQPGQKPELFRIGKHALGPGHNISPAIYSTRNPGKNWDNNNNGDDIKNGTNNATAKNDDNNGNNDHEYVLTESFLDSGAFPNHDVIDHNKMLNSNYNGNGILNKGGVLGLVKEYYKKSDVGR
Chain of UniProt P0C0L4 (whole entry, looked up): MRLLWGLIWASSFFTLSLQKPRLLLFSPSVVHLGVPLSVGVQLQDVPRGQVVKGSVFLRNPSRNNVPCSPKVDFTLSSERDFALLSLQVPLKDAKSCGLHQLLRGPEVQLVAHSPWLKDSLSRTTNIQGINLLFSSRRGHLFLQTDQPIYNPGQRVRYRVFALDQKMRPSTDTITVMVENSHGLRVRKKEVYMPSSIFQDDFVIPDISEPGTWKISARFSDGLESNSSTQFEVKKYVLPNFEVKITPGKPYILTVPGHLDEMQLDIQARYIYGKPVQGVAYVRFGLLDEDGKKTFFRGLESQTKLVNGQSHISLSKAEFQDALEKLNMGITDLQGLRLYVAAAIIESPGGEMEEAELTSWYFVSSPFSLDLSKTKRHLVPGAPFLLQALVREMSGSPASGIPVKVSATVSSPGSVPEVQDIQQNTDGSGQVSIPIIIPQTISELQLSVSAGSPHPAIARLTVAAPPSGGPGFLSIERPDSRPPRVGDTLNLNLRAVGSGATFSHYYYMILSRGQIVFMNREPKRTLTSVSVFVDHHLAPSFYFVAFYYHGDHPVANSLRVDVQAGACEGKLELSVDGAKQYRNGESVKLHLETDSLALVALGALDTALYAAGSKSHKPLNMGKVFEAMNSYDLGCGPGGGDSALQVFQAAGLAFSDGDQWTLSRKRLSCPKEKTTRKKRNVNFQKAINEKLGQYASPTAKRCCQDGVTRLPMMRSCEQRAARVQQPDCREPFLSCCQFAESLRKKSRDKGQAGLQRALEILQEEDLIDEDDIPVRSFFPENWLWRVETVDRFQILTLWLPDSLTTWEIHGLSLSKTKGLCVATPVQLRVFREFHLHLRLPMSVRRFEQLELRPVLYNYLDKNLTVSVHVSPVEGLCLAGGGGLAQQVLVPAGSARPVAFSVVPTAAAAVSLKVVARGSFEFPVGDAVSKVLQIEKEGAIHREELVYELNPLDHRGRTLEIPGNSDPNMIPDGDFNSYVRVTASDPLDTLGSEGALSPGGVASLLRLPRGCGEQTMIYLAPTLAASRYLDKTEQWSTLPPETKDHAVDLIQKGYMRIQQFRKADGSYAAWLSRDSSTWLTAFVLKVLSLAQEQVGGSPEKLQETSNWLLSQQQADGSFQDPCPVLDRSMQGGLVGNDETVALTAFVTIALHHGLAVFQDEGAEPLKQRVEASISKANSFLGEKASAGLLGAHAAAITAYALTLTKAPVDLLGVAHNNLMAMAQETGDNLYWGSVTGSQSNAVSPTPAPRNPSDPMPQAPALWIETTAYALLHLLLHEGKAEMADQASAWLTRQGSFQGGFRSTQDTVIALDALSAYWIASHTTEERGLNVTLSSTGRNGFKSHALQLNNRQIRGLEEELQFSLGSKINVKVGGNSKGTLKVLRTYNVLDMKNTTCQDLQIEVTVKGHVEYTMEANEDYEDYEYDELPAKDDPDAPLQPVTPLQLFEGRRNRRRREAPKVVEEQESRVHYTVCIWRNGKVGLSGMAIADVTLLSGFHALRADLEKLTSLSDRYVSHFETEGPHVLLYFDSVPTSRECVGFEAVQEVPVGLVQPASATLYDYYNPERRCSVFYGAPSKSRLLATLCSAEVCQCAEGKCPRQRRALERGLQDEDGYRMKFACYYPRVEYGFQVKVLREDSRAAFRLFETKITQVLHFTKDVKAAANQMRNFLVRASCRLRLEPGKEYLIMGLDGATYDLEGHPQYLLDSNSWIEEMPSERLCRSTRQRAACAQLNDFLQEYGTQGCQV
Chain of UniProt P21651 (whole entry, looked up): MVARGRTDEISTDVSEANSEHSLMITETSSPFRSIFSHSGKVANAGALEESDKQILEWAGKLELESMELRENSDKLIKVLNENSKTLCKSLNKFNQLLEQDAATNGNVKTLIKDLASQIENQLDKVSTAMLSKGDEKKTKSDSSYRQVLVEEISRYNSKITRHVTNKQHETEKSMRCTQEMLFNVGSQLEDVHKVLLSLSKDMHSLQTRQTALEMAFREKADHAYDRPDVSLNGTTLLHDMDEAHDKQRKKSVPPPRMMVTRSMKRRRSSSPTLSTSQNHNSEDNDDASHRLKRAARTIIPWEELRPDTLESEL

Molecule | tested on | assay | test system | conditions | scale | measurement | value
KYKLADYRYGREEMLALFLK (GIGYF2 35-54 (Homo sapiens, UniProt Q6Y7W6-1)) | EIF4E2 | ITC | peptide |  |  | molecule per partner | 1 ± 0.01
B1 (DTNB 422-535) | DMD 3365-3685 (Homo sapiens, UniProt P11532-1) | ITC |  |  |  | molecule per partner | 0.84
B2 (priC) | rep (Escherichia coli, UniProt P09980) | AUC |  |  |  | molecule per partner | 2
B3 (GIGYF2 35-105) | EIF4E2 | ITC | peptide |  |  | molecule per partner | 1 ± 0.01
B4 (CER6) | GL2 (Zea mays, UniProt A0A804MAL4) | cryo-EM |  |  |  | molecule per partner | 1 2:2
B5 (PUX7 322-468) | CDC48A | ITC |  | 10 °C |  | molecule per partner | 1.4 ± 0.1
ARTKQTARKSTGGY (H3 1-13; K4me3) | T1, BPTF PHD domain Y23M | ITC | peptide |  |  | molecule per partner | 0.772 sites and 0.678 sites and 0.767 sites
CHD1 fragment (Saccharomyces cerevisiae) | nucleosome (Xenopus laevis) | EMSA |  |  |  | molecule per partner | 2 Chd1:nucleosome
KLVVVGAGDV | HLA class I histocompatibility antigen, A alpha chain, allele A*33:03 (Homo sapiens, UniProt P04439) | MHC class I stabilisation, flow cytometry | peptide, TAP2-knockout TISI monoallelic cells | 25 µM, 18 h, 37 °C, with: β2-microglobulin 3 µg/mL | reference: DMSO | HLA class I surface increase | -2.7%
B6 (PUX5 301-421 M393A/F395A) | CDC48A | ITC |  | 25 °C |  | molecule per partner | 1.1 ± 0.1
KPGKGSETVV | human SCRIB PDZ3-4 tandem (MBP fusion) | automated holdup | peptide, crude extract | concentration not given, corrected by standard peak, unit not given | reference: biotin control resin, higher = stronger binding | binding intensity | 0.245
B7 (ATG23 full-length, dimer) | ATG9 864-997 (Saccharomyces cerevisiae, UniProt Q12142) | ITC |  | 20 °C |  | molecule per partner | 0.79
B8 (UBE3A 1-64) | PSMD4 305-377 (Homo sapiens, UniProt P55036) | SEC-MALS |  |  |  | molecule per partner | 1
PUX5 fragment F304A/L311A (Arabidopsis thaliana) | CDC48A | ITC |  | 25 °C |  | molecule per partner | 1.1 ± 0.1
KYKLADYRYGREEMLALFLKDNKIPSDLLDKEFLPILQ (GIGYF2 35-72 (Homo sapiens, UniProt Q6Y7W6-1)) | EIF4E2 | ITC | peptide |  |  | molecule per partner | 1 ± 0.01
ARTKQTARKSTGGKA (H3C1 1-15; K9me3) | T2, ATRX ADD domain 167-289 K251R/F284Y (Homo sapiens) | ITC | peptide |  |  | molecule per partner | 1.04

Molecule | tested on | assay | test system | conditions | scale | measurement | value
B9 (YWHAE) | FOXO3 residues 248-258, pS253 (Homo sapiens) | ITC |  |  |  | molecule per partner | 0.9
B10 (mxt 577-640) | eIF4E1 69-248 (Drosophila melanogaster, UniProt P48598-2) | ITC |  |  |  | molecule per partner | 1 ± 0.03
ARTKQTARKSTG (histone H3 peptide 1-12; K4me1) | PHD tandem finger domain 364-473 (Physcomitrium patens, UniProt A0A2K1L966) | ITC | peptide |  |  | molecule per partner | 0.83
TRIIYDRKFLMECRNSPVTKTPPRDLPTIPGVTS (EIF4EBP1 50-83 (Homo sapiens, UniProt Q13541)) | EIF4E2 52-234 S99N (Homo sapiens, UniProt O60573-1) | ITC | peptide |  |  | molecule per partner | 1.01 ± 0.01
B11 (PUX5 301-421 R353A) | CDC48A | ITC |  | 25 °C |  | molecule per partner | 1 ± 0.1
ARTKQTARKSTGGKAY (H3C1 1-15; K4me2) | T2, ATRX ADD domain 167-289 K251R/F284Y (Homo sapiens) | ITC | peptide |  |  | molecule per partner | 1.05
C4b (Homo sapiens, UniProt P0C0L4) | C4BP/PROS1 mature (human) | mass photometry |  |  |  | molecule per partner | 3 C4b per C4BP
GSGAGSETKM | human SCRIB PDZ3-4 tandem (MBP fusion) | automated holdup | peptide, crude extract | concentration not given, corrected by standard peak, unit not given | reference: biotin control resin, higher = stronger binding | binding intensity | -0.0331
AATKQTARKS (H3C1 1-10 R2A) | T2, ATRX ADD domain 167-289 K251R/F284Y (Homo sapiens) | ITC | peptide |  |  | molecule per partner | 1
B12 (SPP1) | REC107 (Saccharomyces cerevisiae, UniProt P21651) | SEC-MALS |  |  |  | molecule per partner | 2 per Mer2 tetramer
ARTKQTARKSTGGKA (H3C1 1-15; K9me2) | T2, ATRX ADD domain 167-289 K251R/F284Y (Homo sapiens) | ITC | peptide |  |  | molecule per partner | 1
colistin | Klebsiella pneumoniae | broth microdilution | clinical isolate RKI-No_577/15 |  |  | MIC | ≤ 0.5 µg/mL
B13 (BBC3) | BCL2L1 fragment (Homo sapiens) | ITC |  |  |  | molecule per partner | 0.97
FGA (Homo sapiens, UniProt P02671) | WDR17 (Homo sapiens, UniProt Q8IZU2) | cross-linking MS |  | with: DSSO |  | cross-linked residues | K243 to K206
B14 (HCK 78-138) | PIK3R1 80-333 (Homo sapiens, UniProt P27986) | ITC |  |  |  | molecule per partner | 1.1 ± 0.1
TPTPSARRTIGPRAPKSKTTY (Cdc12 residues 20-40 (Schizosaccharomyces pombe)) | cdc15 19-312 E30K/E152K (Schizosaccharomyces pombe, UniProt Q09822) | ITC | peptide |  |  | molecule per partner | 0.5 and 0.52 and 0.49 and 0.55

Excerpt of the above:
Molecule | tested on | assay | test system | conditions | scale | measurement | value
B6 (PUX5 301-421 M393A/F395A) | CDC48A | ITC |  | 25 °C |  | molecule per partner | 1.1 ± 0.1
KPGKGSETVV | human SCRIB PDZ3-4 tandem (MBP fusion) | automated holdup | peptide, crude extract | concentration not given, corrected by standard peak, unit not given | reference: biotin control resin, higher = stronger binding | binding intensity | 0.245
B7 (ATG23 full-length, dimer) | ATG9 864-997 (Saccharomyces cerevisiae, UniProt Q12142) | ITC |  | 20 °C |  | molecule per partner | 0.79
B8 (UBE3A 1-64) | PSMD4 305-377 (Homo sapiens, UniProt P55036) | SEC-MALS |  |  |  | molecule per partner | 1
PUX5 fragment F304A/L311A (Arabidopsis thaliana) | CDC48A | ITC |  | 25 °C |  | molecule per partner | 1.1 ± 0.1
